# Experimental data from different studies.
# Compare with care: the assays were run in different laboratories.
# Cell line: CCRF-CEM
SMILES,assay,conditions,quantity,result
CC(C)C[C@H](NC(=O)[C@H](CCC(N)=O)NC(=O)CNC(=O)[C@H](Cc1c[nH]cn1)NC(=O)[C@H](CCC(N)=O)NC(=O)[C@H](CCCNC(=N)N)NC(=O)[C@H](CCCNC(=N)N)NC(=O)CNC(=O)CNC(=O)[C@H](CCCNC(=N)N)NC(=O)[C@H](CCCNC(=N)N)NC(=O)[C@H](CCCNC(=N)N)NC(=O)[C@H](CCC(N)=O)NC(=O)[C@H](CCCNC(=N)N)NC(=O)[C@H](CCCNC(=N)N)NC(=O)[C@H](CCCCN)NC(=O)[C@H](CCCCN)NC(=O)[C@H](CCCNC(=N)N)NC(=O)CN)C(=O)N[C@@H](Cc1c[nH]c2ccccc12)C(=O)N[C@@H](Cc1ccccc1)C(=O)N1CCC[C@H]1C(=O)N[C@@H](CCC(=O)O)C(=O)NCC(=O)N[C@@H](Cc1ccccc1)C(=O)O,trypan blue exclusion,"100 µM, 0.5 h",viability,< 30%
C/C1=C\CC[C@@]2(C)O[C@H]2[C@H]2OC(=O)C(C)[C@@H]2CC1 (some centres unmarked),"cell growth or viability, resazurin",,IC50,> 500 µM
CC12CCC3(CCC(=O)NCCCNc4ccnc5cc(Cl)ccc45)C(C)(OOC3(C)O1)O2,"cell growth or viability, resazurin","10 µM, 48 h",inhibition,22.9%
CC(C)[C@H](NC(=O)[C@H](C(C)C)N(C)C)C(=O)N(C)[C@H](C(=O)N1CCC[C@H]1C(=O)N1CCC[C@H]1C(=O)O)C(C)C,cell growth or viability,24 h,IC50,0.31 µM
C[C@H]1C(O)O[C@@H]2O[C@@]3(C)CC[C@H]4[C@H](C)CCC1[C@@]24OO3 (some centres unmarked),"cell growth or viability, XTT",,IC50,0.87 µM
CN(C)CC1C(=O)OC2C1CCC1(C)CC1CCC1(C)OC21 (centres unmarked),"cell growth or viability, resazurin",,IC50,2.9 µM
CC/C=C\C/C=C\C/C=C\C/C=C\C/C=C\C/C=C\CCC(=O)Nc1ccn(C2OC(CO)C(O)C2(F)F)c(=O)n1 (centres unmarked),NCI-60 screen,,CC50,> 100 µM
OC[C@H]1[C@@H](O)[C@@H](O)CN1Cc1ccc(I)cc1,"cell growth or viability, MTS",72 h,IC50,102 µM
CC1CCC2C(C)C(OC(=O)CCC(=O)N(CCCc3cn(-c4ccc(CN5CCOCC5)cc4)nn3)CCNc3ccnc4cc(Cl)ccc34)OC3OC4(C)CCC1C32OO4 (centres unmarked),"cell growth or viability, resazurin","10 µM, 48 h",inhibition,33.3%
OC[C@H]1[C@@H](O)[C@@H](O)CN1Cc1ccccc1,"cell growth or viability, MTS",72 h,IC50,101 µM
C#CCCCNCCNc1ccnc2cc(Cl)ccc12,"cell growth or viability, resazurin","10 µM, 48 h",inhibition,4.2%
